Assay results gathered from unrelated publications.
Every numbered part comes from another study and shows a few of its results, in no order. Values joined by “and” are separate records of one study, mostly repeats; a detail may differ.
UniProt O75676, sequence (whole entry, looked up): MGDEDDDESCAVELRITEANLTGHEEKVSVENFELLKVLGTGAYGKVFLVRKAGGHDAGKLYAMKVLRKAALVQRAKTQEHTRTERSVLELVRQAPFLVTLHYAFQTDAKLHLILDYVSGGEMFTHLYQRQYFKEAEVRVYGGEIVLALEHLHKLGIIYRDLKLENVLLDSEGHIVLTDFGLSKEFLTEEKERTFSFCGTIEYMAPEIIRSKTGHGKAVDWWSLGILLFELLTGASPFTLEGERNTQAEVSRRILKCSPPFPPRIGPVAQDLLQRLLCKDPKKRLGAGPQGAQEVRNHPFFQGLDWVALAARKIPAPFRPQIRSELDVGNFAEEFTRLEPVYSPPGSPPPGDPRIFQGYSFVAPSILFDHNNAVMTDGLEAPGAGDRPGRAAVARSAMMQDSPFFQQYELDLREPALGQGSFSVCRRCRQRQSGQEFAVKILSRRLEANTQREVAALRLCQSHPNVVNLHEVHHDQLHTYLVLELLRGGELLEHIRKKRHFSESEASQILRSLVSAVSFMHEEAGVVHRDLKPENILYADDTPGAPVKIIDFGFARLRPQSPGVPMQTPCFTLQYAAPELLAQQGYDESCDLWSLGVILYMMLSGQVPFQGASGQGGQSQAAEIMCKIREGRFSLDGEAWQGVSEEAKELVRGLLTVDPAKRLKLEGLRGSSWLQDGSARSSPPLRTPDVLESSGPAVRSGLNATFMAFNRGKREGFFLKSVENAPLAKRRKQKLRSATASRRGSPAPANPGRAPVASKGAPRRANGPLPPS
UniProt P35968, sequence (whole entry, looked up): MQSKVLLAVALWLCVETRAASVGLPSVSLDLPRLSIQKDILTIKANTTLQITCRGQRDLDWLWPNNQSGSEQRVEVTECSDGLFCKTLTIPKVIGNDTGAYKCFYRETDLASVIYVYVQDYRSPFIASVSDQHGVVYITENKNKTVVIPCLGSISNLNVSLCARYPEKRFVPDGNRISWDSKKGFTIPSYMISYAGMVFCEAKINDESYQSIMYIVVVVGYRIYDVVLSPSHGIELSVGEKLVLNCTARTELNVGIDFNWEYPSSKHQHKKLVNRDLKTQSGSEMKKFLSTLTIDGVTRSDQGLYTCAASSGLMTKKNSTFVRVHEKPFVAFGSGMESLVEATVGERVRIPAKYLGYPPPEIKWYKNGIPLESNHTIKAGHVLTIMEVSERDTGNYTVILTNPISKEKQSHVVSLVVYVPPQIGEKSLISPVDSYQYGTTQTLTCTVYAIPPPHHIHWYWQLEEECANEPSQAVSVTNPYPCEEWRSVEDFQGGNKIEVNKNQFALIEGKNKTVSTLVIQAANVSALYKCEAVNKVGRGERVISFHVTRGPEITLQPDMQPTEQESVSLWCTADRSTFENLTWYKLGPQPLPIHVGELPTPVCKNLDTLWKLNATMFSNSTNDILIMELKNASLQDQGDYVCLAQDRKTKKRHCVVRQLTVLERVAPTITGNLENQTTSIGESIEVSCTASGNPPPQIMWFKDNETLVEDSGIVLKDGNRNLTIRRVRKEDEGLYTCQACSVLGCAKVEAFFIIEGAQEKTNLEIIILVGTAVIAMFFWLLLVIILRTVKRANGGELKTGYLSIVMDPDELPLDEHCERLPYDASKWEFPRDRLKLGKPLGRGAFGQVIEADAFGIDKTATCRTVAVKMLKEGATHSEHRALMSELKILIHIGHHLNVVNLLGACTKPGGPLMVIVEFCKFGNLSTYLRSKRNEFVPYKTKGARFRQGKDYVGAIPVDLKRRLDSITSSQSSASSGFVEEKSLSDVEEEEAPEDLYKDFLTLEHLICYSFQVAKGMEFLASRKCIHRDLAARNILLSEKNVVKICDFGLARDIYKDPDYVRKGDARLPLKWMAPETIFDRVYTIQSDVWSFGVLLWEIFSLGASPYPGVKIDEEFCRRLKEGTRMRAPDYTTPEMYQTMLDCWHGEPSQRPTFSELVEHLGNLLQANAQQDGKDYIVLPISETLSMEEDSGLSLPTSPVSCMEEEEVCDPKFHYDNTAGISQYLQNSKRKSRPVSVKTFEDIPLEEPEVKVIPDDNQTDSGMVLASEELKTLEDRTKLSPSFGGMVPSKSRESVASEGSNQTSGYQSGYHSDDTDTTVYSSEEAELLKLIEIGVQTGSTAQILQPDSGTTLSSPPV
UniProt Q8N568, sequence (whole entry, looked up): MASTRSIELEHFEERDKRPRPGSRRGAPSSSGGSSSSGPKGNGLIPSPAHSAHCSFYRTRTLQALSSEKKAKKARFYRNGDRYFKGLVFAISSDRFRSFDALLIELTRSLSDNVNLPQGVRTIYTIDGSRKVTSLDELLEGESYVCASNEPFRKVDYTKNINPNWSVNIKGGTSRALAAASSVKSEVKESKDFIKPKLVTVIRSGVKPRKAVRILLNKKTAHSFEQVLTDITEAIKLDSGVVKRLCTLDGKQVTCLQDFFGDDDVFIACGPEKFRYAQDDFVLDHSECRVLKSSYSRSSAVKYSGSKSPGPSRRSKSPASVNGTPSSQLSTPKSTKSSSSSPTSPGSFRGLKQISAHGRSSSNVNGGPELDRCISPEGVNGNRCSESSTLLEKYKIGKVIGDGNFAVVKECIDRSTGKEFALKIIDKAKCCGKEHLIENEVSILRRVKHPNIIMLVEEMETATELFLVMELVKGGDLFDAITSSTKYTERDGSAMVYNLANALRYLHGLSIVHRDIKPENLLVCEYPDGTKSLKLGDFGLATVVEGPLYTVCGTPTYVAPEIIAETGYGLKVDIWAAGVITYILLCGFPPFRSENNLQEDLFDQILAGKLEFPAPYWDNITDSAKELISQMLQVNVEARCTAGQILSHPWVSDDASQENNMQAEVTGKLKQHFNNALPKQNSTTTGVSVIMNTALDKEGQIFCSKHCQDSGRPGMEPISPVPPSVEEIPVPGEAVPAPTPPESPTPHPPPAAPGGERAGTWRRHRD
UniProt Q16832, sequence (whole entry, looked up): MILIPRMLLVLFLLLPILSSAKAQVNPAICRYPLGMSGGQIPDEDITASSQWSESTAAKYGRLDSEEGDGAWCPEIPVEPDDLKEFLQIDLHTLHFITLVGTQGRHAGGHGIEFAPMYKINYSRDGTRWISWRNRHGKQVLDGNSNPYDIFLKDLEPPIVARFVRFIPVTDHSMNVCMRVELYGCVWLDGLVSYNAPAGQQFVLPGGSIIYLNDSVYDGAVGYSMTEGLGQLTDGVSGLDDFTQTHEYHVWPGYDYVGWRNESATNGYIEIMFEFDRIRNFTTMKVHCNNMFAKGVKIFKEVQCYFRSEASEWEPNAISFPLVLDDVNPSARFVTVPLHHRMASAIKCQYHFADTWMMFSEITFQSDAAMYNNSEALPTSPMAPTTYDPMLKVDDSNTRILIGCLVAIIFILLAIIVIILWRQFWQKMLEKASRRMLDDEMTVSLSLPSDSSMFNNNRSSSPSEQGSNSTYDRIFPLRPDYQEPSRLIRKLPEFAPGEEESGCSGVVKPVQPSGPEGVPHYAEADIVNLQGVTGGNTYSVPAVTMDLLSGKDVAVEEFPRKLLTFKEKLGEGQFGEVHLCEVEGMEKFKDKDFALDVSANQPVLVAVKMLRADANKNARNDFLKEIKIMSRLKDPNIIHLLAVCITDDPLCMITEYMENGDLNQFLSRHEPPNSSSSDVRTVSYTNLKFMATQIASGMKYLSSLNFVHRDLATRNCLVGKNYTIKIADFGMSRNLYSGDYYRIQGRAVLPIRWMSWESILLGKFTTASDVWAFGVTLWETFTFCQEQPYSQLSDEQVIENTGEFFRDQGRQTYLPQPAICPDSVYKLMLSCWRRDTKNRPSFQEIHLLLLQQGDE
UniProt Q9H4B4, sequence (whole entry, looked up): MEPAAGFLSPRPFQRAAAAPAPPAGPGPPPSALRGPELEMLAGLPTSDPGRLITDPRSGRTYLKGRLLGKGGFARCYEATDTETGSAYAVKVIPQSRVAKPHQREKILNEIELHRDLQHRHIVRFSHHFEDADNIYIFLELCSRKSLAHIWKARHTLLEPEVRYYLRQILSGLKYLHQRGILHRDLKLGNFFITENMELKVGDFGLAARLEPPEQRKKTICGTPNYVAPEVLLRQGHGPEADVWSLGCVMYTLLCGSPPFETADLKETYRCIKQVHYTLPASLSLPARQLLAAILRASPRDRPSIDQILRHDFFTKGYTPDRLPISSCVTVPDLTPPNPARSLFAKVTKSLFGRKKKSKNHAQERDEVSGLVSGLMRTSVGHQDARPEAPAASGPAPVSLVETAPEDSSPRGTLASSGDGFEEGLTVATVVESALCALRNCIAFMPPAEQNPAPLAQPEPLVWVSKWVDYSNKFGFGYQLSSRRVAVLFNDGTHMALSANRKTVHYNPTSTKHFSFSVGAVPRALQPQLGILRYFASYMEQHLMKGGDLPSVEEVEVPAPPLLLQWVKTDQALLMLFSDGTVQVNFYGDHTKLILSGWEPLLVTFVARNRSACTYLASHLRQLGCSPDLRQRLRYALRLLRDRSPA
UniProt Q16566, sequence (whole entry, looked up): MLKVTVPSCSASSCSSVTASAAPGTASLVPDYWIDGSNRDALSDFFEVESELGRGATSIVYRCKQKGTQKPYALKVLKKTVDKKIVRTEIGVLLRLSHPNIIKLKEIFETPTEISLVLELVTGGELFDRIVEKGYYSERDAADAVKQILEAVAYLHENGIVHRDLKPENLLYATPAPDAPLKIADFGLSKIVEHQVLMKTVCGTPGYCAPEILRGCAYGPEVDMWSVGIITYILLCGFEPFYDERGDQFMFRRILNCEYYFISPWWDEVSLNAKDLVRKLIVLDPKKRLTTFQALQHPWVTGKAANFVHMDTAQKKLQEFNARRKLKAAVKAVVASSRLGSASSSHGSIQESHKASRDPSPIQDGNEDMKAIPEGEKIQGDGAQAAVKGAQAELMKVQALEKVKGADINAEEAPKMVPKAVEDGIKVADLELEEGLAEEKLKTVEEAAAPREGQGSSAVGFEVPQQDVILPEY

Set 1
Cell line: normal organoid sample H
Method: CellTiter-Glo
Host: human
Medium: normal-adjacent epithelium
Concentration: 1 µM
Relative to: DMSO
Measurement: viability
Cc1c(Oc2ccc(F)cc2)c(OC(C)C)nn1-c1ccc(C2CC2)cn1: 107% and 120%
Cn1cnc2c(F)c(Nc3ccc(Br)cc3Cl)c(C(=O)NOCCO)cc21: 63.6% and 52.7%
Cc1cnc(-c2cc(Cl)ccc2F)cc1-n1c(=O)n(CC(N)=O)c2cnccc21: 102% and 104%
CN1CCN(c2cnc3c(C4CCN(C(=O)c5ccc(OC(F)(F)F)cc5N)CC4)ncnc3c2)CC1: 98.7% and 96.1%
CC1=C(C#N)C(c2ccc3c(c2)c(NC(=O)c2ccccc2C)nn3C)C(C#N)=C(C)N1: 91.2%
C[C@H](c1cccc(C#N)c1)n1cc(Cl)cc(C(N)=O)c1=N: 113% and 102%
O=C(NS(=O)(=O)c1ccc(NCC2CCOCC2)c([N+](=O)[O-])c1)c1ccc(N2CCN(Cc3ccc(C(F)(F)F)cc3-c3ccc(Cl)cc3)CC2)cc1Oc1cnc2[nH]ccc2c1: 98.1% and 110%
O=C1CCc2cc(Nc3cc(OC4CCOCC4)c([N+](=O)[O-])cc3Cl)ccc2N1: 110%
Cc1nc(C2CCN(C(=O)c3ccc(OC(F)(F)F)cc3N)CC2)c2ncc(N3CCN(C)CC3)cc2n1: 123% and 121%

Set 2
Compound: Cc1cncc2cccc(S(=O)(=O)N3CCCN(C(=O)CN)C[C@@H]3C)c12
Observed: enzyme activity
Mode: inhibitor
Concentration: 0.5 µM
Relative to: control
Measurement: remaining activity
TLK2 (Homo sapiens, UniProt Q86UE8): 97.7%
MET (Homo sapiens, UniProt P08581): 104%
RPS6KA4 (Homo sapiens, UniProt O75676): 82.3%
KDR (Homo sapiens, UniProt P35968): 99%
PLK3 (Homo sapiens, UniProt Q9H4B4): 98.4%
TXK (Homo sapiens, UniProt P42681): 103%
CLK4 (Homo sapiens, UniProt Q9HAZ1): 105%
CAMK4 (Homo sapiens, UniProt Q16566): 90.6%
DCLK2 (Homo sapiens, UniProt Q8N568): 89%
CDC42BPB (Homo sapiens, UniProt Q9Y5S2): 105%
MARK4 (Homo sapiens, UniProt Q96L34): 95.7%
DDR2 (Homo sapiens, UniProt Q16832): 103%
MAPK11 (Homo sapiens, UniProt Q15759): 101%
MAP2K1 (Homo sapiens, UniProt Q02750): 94.9%

Set 3
Host: mouse
Medium: microsomes or S9
Concentration: 2 µM
Time: 0.5 h
Measurement: remaining compound
COc1ccc2c(c1OC)C(=O)N1c3ccccc3C(=O)N(CC(=O)Nc3ccc4nc[nH]c4c3)C21 (stereo not shown): 73%
Cn1cc(C2NC(N)=Nc3nc4ccccc4n32)c2cc(F)ccc21 (stereo not shown): 27.6%
Cc1cc(C)n(-c2nc3cc(Cl)c(Cl)cc3nc2NCc2ccncc2)n1: 94.6%
CCOC(=O)C1=C(n2[nH]c3nc(C)cc(COC)c3c2=N)CCC1: 44.5%
O=C(O)c1nc2nc(C3CC3)cc(C(F)(F)F)n2n1: 93%
Cn1ncc2c(NCc3cc4ccccc4[nH]3)nc(-c3ccccn3)nc21: 6.5%
CCOC(=O)/C=N/N(c1ccccc1)c1ccccc1[N+](=O)[O-]: 1.68%

Mixed results
CC(C)n1cnc(-c2ccc(F)cc2)c1-c1ncc(C(=O)Nc2ccc(N3CCN(C)CC3)cc2)[nH]1
patients with blurred vision (human, idiopathic pulmonary fibrosis; 30 mg once daily, trial, treatment-emergent): 0%

A few entries again (set 3):
Cc1cc(C)n(-c2nc3cc(Cl)c(Cl)cc3nc2NCc2ccncc2)n1: 94.6%
CCOC(=O)C1=C(n2[nH]c3nc(C)cc(COC)c3c2=N)CCC1: 44.5%
O=C(O)c1nc2nc(C3CC3)cc(C(F)(F)F)n2n1: 93%
Cn1ncc2c(NCc3cc4ccccc4[nH]3)nc(-c3ccccn3)nc21: 6.5%
